Measured values pooled from the literature.
A part holds a random share of what one study measured.
Sequence of UniProt Q9UJQ4 (whole entry, looked up): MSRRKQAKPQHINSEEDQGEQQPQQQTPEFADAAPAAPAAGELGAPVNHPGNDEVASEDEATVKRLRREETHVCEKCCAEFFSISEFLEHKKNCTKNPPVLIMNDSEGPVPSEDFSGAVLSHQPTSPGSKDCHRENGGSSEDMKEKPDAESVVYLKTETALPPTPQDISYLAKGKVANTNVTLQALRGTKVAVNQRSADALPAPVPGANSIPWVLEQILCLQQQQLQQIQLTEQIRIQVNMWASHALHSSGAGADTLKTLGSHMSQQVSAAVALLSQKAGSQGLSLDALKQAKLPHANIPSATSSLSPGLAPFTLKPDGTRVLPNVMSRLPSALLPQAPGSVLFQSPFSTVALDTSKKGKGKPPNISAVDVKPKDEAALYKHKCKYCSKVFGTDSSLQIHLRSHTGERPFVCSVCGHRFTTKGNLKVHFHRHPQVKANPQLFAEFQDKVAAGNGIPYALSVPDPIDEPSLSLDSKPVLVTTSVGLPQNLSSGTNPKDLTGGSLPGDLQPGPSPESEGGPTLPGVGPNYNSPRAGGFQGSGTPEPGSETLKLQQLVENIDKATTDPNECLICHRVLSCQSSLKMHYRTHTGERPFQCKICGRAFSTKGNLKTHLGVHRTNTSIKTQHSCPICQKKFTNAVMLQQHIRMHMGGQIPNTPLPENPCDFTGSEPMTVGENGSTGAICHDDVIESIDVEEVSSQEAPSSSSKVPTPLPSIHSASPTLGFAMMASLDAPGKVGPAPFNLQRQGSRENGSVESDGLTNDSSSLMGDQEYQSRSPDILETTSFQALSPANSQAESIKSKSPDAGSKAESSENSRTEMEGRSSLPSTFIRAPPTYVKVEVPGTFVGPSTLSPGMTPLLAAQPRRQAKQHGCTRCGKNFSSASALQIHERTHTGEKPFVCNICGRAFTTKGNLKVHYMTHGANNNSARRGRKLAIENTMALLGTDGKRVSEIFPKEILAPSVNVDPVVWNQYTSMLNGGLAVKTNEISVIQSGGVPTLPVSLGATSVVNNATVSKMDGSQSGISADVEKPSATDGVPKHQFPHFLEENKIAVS

Study 1
Target: Histone acetyltransferase KAT6A, winged helix 2, GST fusion (KAT6A, Homo sapiens, UniProt Q92794, residues 85-181)
Technique: protein binding microarray
Form: double-stranded DNA, one strand shown
Sample: in vitro
Tested at: not given
Setting: 8-mer, flanks averaged, mean of 2 arrays, mostly near background
Relative to: not given
Direction: higher = stronger binding
Quantity: E-score
Residues (chain): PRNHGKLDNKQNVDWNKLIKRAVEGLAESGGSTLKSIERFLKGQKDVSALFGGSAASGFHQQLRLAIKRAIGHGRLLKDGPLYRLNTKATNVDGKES
Sequence = ACCTTTTC; result = -0.162
Sequence = AAGCGCAG; result = 0.218
Sequence = AGATAGAA; result = -0.102
Sequence = ACCCCTCC; result = -0.0194

Study 2
Target: PABPC1L2, full length, GST fusion (mouse, UniProt A0ABA7IW68)
Technique: RNAcompete
Form: RNA
Sample: in vitro
Tested at: 20 nM
Setting: 7-mer, probes averaged, single round
Relative to: mean of 7-mers
Direction: higher = stronger binding
Quantity: 7-mer Z-score
Residues (chain): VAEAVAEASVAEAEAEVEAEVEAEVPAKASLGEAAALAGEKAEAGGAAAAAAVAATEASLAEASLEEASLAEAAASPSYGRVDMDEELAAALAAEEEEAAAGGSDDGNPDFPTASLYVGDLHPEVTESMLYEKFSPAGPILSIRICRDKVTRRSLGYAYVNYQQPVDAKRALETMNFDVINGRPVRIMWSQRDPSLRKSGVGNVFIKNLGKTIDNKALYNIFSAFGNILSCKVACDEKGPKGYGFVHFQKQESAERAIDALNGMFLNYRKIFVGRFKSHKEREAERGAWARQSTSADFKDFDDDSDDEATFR
Sequence = UAAGCUC; result = -0.295
Sequence = GCGGCAG; result = 0.175
Sequence = UCAGAAU; result = -0.175
Sequence = CACAGCC; result = -0.267

Single results of other studies
Molecule = PhoQ, residues 284 288 289 292 302 303 SNSSNI; target = PhoP, residues 12 14 15 18 19 SGWQI (Escherichia coli, UniProt P23836); test = Sort-seq, item: YFP reporter; test system = E. coli; conditions = PhoQ-PhoP variant library, added: 10 µM Mg2+; scale = relative to: high Mg2+ state, higher = stronger signaling; quantity = fold induction; result = 0.463
Molecule = CGAAACGA; target = Sal-like protein 4, full length isoform A (SALL4, Homo sapiens, UniProt Q9UJQ4, residues 1-1053); test = universal PBM; test system = double-stranded DNA, one strand shown, in vitro; conditions = 600 nM, 8-mer, flanks averaged, mean of replicates; scale = higher = stronger binding; quantity = E-score; result = -0.017

Some of these lines once more (study 2):
Sequence = UCAGAAU; result = -0.175
